Measurements pooled from the literature.
Parts stem from different laboratories: compare values within a part only.
UniProt Q13705, sequence (whole entry, looked up): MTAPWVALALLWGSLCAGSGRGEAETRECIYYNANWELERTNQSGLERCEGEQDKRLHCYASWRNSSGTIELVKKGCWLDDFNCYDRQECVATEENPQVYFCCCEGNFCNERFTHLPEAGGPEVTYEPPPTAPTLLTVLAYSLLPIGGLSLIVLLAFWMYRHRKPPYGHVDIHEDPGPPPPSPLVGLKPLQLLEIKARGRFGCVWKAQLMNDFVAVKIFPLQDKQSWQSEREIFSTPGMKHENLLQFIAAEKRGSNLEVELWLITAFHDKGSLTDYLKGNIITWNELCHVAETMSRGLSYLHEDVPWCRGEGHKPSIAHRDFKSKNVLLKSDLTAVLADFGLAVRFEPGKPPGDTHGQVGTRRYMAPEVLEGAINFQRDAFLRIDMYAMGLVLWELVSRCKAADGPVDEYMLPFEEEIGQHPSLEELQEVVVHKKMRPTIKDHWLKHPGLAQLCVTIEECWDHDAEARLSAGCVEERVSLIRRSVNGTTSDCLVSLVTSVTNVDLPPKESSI
UniProt O00238, sequence (whole entry, looked up): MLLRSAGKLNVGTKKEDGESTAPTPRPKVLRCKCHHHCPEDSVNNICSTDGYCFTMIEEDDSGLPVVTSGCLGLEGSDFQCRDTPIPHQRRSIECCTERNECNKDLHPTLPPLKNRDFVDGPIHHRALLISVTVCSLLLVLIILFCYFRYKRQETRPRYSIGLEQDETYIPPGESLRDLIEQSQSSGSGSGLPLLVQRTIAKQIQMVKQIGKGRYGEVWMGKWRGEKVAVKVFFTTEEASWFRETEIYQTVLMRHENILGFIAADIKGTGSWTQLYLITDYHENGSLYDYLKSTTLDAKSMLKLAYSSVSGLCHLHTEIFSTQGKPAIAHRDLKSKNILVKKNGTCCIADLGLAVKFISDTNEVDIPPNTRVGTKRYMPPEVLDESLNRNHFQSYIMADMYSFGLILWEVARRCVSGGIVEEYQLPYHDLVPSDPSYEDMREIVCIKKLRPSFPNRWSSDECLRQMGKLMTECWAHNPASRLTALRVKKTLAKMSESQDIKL
UniProt P42338, sequence (whole entry, looked up): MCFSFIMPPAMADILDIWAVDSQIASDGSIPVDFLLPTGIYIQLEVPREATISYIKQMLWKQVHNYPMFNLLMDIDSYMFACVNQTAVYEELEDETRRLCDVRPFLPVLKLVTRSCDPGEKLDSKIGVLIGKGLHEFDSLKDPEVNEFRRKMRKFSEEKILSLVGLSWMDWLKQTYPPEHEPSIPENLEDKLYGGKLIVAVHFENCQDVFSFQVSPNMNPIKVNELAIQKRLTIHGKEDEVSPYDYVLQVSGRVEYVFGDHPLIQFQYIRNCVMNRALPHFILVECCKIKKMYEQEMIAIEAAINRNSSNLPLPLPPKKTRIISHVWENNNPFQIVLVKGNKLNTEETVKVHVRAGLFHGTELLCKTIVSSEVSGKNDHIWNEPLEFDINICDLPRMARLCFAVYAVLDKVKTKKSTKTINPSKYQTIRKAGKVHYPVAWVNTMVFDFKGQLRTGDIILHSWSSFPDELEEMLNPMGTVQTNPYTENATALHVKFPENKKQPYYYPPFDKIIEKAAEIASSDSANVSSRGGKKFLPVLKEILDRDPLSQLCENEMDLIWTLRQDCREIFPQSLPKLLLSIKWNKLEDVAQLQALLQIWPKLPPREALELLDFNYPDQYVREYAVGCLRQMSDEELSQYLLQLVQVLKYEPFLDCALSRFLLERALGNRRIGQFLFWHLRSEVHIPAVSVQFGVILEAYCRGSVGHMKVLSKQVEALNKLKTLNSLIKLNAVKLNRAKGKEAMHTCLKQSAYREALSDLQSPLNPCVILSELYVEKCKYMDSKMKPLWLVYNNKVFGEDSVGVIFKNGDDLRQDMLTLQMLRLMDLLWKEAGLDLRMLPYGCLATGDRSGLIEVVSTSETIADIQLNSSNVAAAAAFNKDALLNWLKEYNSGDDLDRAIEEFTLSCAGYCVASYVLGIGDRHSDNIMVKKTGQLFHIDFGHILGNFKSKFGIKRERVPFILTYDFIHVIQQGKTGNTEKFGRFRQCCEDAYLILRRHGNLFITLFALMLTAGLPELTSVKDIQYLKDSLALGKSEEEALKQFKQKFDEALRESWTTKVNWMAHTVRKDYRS
UniProt Q9Y6R4, sequence (whole entry, looked up): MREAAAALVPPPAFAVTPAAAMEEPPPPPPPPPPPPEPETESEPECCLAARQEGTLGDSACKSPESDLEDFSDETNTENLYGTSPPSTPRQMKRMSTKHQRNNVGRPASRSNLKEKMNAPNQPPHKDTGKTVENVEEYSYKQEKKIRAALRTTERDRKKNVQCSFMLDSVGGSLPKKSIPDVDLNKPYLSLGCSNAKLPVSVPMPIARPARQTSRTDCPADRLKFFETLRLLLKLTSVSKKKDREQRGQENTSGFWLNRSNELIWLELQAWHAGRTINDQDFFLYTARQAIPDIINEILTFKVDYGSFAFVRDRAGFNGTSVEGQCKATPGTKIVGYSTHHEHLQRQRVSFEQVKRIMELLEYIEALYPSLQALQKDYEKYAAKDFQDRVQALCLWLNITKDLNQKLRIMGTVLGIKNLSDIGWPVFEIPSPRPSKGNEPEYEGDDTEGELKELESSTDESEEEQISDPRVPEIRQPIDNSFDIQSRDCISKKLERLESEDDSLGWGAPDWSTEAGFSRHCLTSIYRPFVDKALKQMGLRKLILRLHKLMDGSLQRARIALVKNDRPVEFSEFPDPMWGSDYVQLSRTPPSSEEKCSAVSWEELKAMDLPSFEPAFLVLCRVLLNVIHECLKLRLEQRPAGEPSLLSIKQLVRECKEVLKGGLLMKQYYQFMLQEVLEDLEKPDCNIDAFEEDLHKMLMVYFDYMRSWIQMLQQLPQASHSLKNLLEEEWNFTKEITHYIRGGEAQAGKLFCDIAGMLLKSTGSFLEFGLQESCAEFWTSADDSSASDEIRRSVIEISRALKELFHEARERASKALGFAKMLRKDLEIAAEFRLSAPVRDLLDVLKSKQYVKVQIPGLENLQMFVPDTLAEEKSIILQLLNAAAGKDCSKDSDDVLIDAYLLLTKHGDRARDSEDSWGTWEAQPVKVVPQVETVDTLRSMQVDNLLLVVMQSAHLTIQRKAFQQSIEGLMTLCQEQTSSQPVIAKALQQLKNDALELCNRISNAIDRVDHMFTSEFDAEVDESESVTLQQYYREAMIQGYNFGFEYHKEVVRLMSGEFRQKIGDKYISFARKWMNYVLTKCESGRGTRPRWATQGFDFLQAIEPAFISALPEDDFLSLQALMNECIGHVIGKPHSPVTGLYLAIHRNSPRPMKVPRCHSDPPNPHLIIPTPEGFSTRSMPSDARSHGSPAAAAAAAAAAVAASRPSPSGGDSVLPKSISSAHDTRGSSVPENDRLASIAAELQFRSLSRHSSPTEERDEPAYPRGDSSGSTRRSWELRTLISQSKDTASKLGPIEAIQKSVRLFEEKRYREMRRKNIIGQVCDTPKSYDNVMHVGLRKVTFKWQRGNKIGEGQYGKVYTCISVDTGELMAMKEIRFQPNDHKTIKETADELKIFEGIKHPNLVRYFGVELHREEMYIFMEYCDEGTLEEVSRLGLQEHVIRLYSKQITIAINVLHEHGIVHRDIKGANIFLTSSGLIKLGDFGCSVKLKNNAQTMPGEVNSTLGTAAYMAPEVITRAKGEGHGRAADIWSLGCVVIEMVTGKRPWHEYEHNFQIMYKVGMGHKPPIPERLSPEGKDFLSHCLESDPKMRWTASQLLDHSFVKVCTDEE
UniProt P11802, sequence (whole entry, looked up): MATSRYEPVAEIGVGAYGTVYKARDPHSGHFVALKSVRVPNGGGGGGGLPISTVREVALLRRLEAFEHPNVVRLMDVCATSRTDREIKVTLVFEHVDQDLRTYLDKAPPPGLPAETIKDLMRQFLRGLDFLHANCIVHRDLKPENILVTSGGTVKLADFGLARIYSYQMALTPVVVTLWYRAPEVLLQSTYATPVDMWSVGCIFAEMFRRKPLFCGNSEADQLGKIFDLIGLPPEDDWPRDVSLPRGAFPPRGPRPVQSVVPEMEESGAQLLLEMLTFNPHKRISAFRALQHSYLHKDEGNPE
UniProt Q9UIK4, sequence (whole entry, looked up): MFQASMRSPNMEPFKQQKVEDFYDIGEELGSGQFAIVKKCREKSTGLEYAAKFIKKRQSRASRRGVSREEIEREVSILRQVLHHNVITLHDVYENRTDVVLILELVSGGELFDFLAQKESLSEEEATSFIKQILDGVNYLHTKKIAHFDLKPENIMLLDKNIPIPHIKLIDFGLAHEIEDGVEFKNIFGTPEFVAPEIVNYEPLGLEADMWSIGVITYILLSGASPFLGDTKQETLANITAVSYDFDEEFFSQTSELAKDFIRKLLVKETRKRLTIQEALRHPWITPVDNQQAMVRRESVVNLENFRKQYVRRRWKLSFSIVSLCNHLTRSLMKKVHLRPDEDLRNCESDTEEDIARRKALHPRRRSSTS

Study 1 — host: human; sample: microsomes or S9; concentration: 2 µM; time: 0.5 h
The remaining compound of CC1CCC(NC(=O)c2ccc(CN3C(=O)NC4(CCS(=O)(=O)CC4)C3=O)cc2)CC1 (stereo not drawn) is reported as 72.9%.
The remaining compound of CCOC(=O)C1CCN(C(=O)CCc2ccc(C(C)(C)C)cc2)CC1 is reported as 5.57%.
Clc1ccccc1/C=C/c1nc(-c2ccccn2)no1 gave a remaining compound of 47.9%.
The remaining compound of COn1c(-c2ccc(C(C)(C)C)cc2)cc2cc3cccccc-3c2c1=O is reported as 11.5%.
With CCn1cc(CN(C/C=C/c2ccco2)CC(C)C)cn1 the remaining compound was 1.45%.
Fc1cccc(F)c1COCC1CON=C(c2cccs2)O1 (stereo not drawn) gave a remaining compound of 51.5%.
CC(=O)c1ccc(N2CCOCC2)c(-c2cccc3c2OCC3)c1 gave a remaining compound of 7.37%.

Study 2 — method: phase 2a trial; host: idiopathic pulmonary fibrosis patients
Compound: CC(C)n1cnc(-c2ccc(F)cc2)c1-c1ncc(C(=O)Nc2ccc(N3CCN(C)CC3)cc2)[nH]1
It gave 0% for “patients with diarrhoea” (dose not given, adverse event grade 4, all dose arms pooled).
The “patients with diarrhoea” was 0% (dose not given, adverse event grade 5, all dose arms pooled).
30 mg once daily, adverse event grade 3 — “patients with diarrhoea”: 0%.
dose not given, adverse event grade 3, all dose arms pooled — “patients with diarrhoea”: 0%.
30 mg once daily, adverse event grade 5 — “patients with diarrhoea”: 0%.
The “patients with diarrhoea” was 0% (30 mg once daily, adverse event grade 4).

Study 3 — cell line: HaCaT; concentration: 100 µM; time: 18 h
With CN(C)CCC=C1c2ccccc2CCc2ccccc21 the viability was 28.4%.
COCCOC(=O)C1=C(C)NC(C)=C(C(=O)OC(C)C)C1c1cccc([N+](=O)[O-])c1 (stereo not drawn) has a viability of 50.5%.
CC(C(=O)O)c1ccc2c(c1)CC(=O)c1ccccc1S2 (stereo not drawn) has a viability of 110%.

Study 4 — method: competition with immobilised ligand; concentration: 0.1 µM
Compound: Cn1cc(Cl)c2c(Oc3c(F)cc(Nc4cc(Cl)nc(N)n4)cc3F)ccnc21
It gave 86% for remaining binding (Mitogen-activated protein kinase 9 (MAPK9, Homo sapiens, UniProt P45984); cell-free assay).
Tyrosine-protein kinase ABL1, phosphorylated (ABL1, Homo sapiens, UniProt P00519, Y253F); cell-free assay — remaining binding: 95%.
It gave 95% for remaining binding (Epidermal growth factor receptor (EGFR, Homo sapiens, UniProt P00533, G719C); cell-free assay).
Bone morphogenetic protein receptor type-1B (BMPR1B, Homo sapiens, UniProt O00238); cell-free assay — remaining binding: 86%.
The remaining binding was 100% (Mitogen-activated protein kinase 4 (MAPK4, Homo sapiens, UniProt P31152); cell-free assay).
Activin receptor type-2B (ACVR2B, Homo sapiens, UniProt Q13705); binding — remaining binding: 79%.
The remaining binding was 100% (Mitogen-activated protein kinase kinase kinase 6 (MAP3K6, Homo sapiens, UniProt O95382); cell-free assay).
The remaining binding was 100% (Death-associated protein kinase 2 (DAPK2, Homo sapiens, UniProt Q9UIK4); cell-free assay).
The remaining binding was 100% (Epidermal growth factor receptor (EGFR, Homo sapiens, UniProt P00533, L861Q); cell-free assay).
The remaining binding was 79% (Mitogen-activated protein kinase kinase kinase 2 (MAP3K2, Homo sapiens, UniProt Q9Y2U5); cell-free assay).
For Myosin light chain kinase 2, skeletal/cardiac muscle (MYLK2, Homo sapiens, UniProt Q9H1R3); cell-free assay: remaining binding read 99%.
It gave 100% for remaining binding (Mitogen-activated protein kinase kinase kinase 12 (MAP3K12, Homo sapiens, UniProt Q12852); cell-free assay).
Phosphatidylinositol 4,5-bisphosphate 3-kinase catalytic subunit beta isoform (PIK3CB, Homo sapiens, UniProt P42338); cell-free assay — remaining binding: 82%.
Serine/threonine-protein kinase Nek9 (NEK9, Homo sapiens, UniProt Q8TD19); cell-free assay — remaining binding: 100%.
The remaining binding was 100% (Cyclin-dependent kinase 4, with cyclin D3 (CDK4, Homo sapiens, UniProt P11802); cell-free assay).
For Mitogen-activated protein kinase kinase kinase 4 (MAP3K4, Homo sapiens, UniProt Q9Y6R4); cell-free assay: remaining binding read 100%.
Epidermal growth factor receptor (EGFR, Homo sapiens, UniProt P00533, G719S); cell-free assay — remaining binding: 98%.

Study 5 — read-out: enzyme activity; mode: inhibitor; concentration: 0.5 µM; baseline: control
Target: Interleukin-1 receptor-associated kinase 1 (IRAK1, Homo sapiens, UniProt P51617)
UniProt P51617, sequence (whole entry, looked up): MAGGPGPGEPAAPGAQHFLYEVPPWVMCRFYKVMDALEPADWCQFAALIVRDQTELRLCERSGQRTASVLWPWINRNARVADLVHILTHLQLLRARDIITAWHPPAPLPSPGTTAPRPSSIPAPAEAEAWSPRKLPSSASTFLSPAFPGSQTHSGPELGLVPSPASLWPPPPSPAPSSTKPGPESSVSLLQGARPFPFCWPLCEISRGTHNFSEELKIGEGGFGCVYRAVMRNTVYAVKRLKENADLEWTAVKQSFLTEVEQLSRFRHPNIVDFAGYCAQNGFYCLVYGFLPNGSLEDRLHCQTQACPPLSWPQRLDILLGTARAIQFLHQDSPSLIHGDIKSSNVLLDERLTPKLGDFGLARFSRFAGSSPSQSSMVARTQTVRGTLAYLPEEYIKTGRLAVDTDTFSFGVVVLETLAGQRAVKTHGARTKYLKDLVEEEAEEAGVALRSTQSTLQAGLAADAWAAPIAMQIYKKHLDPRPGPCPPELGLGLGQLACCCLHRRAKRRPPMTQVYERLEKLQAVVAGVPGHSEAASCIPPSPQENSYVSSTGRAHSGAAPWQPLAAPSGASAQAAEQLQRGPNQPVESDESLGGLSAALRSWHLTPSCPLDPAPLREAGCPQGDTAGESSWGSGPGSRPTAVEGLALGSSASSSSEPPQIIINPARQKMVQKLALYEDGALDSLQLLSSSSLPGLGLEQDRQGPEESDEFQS
With O=C1NC(=O)/C(=C/c2ccc3c(c2)OC(F)(F)O3)S1 the remaining activity was 84.2%.
NC(=O)c1cccc(-c2cc(Nc3ccc(OC(F)(F)F)cc3)ncn2)c1 has a remaining activity of 101%.
With O=C1c2ccccc2-c2nc3nnnn3nc21 the remaining activity was 77.6%.
c1cc(-c2cnn3cc(-c4ccc(OCCN5CCCCC5)cc4)cnc23)ccn1 has a remaining activity of 15.3%.
N#CC(c1ccnc(NCCc2cccnc2)n1)c1nc2ccccc2s1 (stereo not drawn) has a remaining activity of 91.8%.
C[C@@H](N)[C@H]1CC[C@H](C(=O)Nc2ccncc2)CC1 gave a remaining activity of 102%.

Repeated from above (study 1):
The remaining compound of CC1CCC(NC(=O)c2ccc(CN3C(=O)NC4(CCS(=O)(=O)CC4)C3=O)cc2)CC1 (stereo not drawn) is reported as 72.9%.
The remaining compound of CCOC(=O)C1CCN(C(=O)CCc2ccc(C(C)(C)C)cc2)CC1 is reported as 5.57%.
Clc1ccccc1/C=C/c1nc(-c2ccccn2)no1 gave a remaining compound of 47.9%.
The remaining compound of COn1c(-c2ccc(C(C)(C)C)cc2)cc2cc3cccccc-3c2c1=O is reported as 11.5%.
With CCn1cc(CN(C/C=C/c2ccco2)CC(C)C)cn1 the remaining compound was 1.45%.
Fc1cccc(F)c1COCC1CON=C(c2cccs2)O1 (stereo not drawn) gave a remaining compound of 51.5%.
